Published values pooled from the literature.
Parts stem from different laboratories: compare values within a part only.

Set 1
Target: Interferon regulatory factor 7, full length, phosphomimetic (IRF7, Homo sapiens, UniProt Q92985, residues 1-503, S101K/S471D/S472D/S475D/S476D/S477D/S483D/S484D/S487D)
UniProt Q92985, sequence (whole entry, unmodified, looked up): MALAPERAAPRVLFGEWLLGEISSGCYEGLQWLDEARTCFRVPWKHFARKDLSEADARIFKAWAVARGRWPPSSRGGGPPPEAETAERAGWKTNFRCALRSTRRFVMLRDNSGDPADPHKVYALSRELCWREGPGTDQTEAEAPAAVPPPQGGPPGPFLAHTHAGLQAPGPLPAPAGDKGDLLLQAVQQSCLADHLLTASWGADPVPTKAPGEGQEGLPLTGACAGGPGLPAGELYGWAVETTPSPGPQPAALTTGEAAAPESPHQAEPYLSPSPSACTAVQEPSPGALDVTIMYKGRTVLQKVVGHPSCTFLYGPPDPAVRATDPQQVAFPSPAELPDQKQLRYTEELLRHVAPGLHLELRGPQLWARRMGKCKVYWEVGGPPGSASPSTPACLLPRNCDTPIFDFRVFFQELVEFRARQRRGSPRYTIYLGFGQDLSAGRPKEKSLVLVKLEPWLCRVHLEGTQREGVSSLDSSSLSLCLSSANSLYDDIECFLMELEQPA
Technique: protein-binding microarray
Molecule type: double-stranded DNA, one strand shown
Medium: in vitro
Concentration: 250 nM
Setting: 60-bp whole probe
With: salmon DNA 0.4 mg/ml
Reference: random background probes
Reading: higher = stronger binding
Constant ends, left off below: GCCTAGCAC … GTCTTGATTCGCTTGACGCTGCTG
Sequence	log fluorescence [z-score]
AACGGTTTCCTTCTCCTGACGTGCTAG	2.76
TTAGATCTCATACTGGATTAGTGCTAG	-0.0041
TTAGGACTGGACACTGCGTTAGTGCTA	-0.532
TTAGATATCCGTCTCGATTAGTGCTAG	0.651
TTGATTGTGGCTTTTTAATGGTGCTAG	-0.462
TTAGCTATCGGGTATCGATTAGTGCTA	0.183
TTAGTTATCGACTATCGGTTAGTGCTA	0.189
TTAGGTATCGACTTCCGGTTAGTGCTA	2.14
TTAGGTATCGCGTATCGGTTAGTGCTA	0.546
TTAGATCTCAGACTGGGTTAGTGCTAG	0.0575
TCAAGACTCATAATGGCACTGTGCTAG	0.12
CATCATTGCCTATTTTTCCCCGTGCTA	0.361
GTAGTAATCTTAAGGCTGTCGTGCTAG	-0.489
GACGGTCTCCTTATCCTGATGTGCTAG	0.263
GACGGACTGGACGTTCGGGACGTGCTA	-0.813
TCACATCTTCCTCTGCCACTGTGCTAG	0.853
GGCGATTTCAGACTGGAGACGTGCTAG	-0.666
CTAATATTCTGCTTTGCAATGTGCTAG	1.47
GGGTGTGTGAGTGTGTGTGCGTGCTAG	-1.02
GACGGTTTCGACTATCAGGACGTGCTA	5.62

Set 2
Target: RING finger protein unkempt homolog, zinc fingers 1-6, GST-SBP tag (UNK, Homo sapiens, UniProt Q9C0B0, residues 30-357)
UniProt Q9C0B0, sequence (30-357, looked up): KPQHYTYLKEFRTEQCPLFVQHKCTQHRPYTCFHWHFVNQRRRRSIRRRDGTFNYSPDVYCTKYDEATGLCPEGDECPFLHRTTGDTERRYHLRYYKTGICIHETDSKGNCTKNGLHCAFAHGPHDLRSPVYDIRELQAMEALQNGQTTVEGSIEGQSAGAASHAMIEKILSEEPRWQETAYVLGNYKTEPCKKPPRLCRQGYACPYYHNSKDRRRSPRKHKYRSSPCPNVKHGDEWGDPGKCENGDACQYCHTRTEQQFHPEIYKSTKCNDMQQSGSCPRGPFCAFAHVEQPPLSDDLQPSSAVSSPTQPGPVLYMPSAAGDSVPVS
Technique: RNA Bind-n-Seq
Molecule type: RNA
Medium: in vitro
Concentration: not given
Setting: RNA with constant flanks, human-mouse chimeric sites, ends assumed
Reference: input RNA pool
Reading: higher = stronger binding
Constant ends, left off below: GGGAGUUCUACAGUCCGACGAUC … CAACAGAGGAUUGAGCAUCA
Sequence	bound/input enrichment
CUGUUUUGACAGCCACACAAUCUUGGCAUGUAUUAAGAAAAAAAAAAAUCCCUGUUCAAGUAGUUUUUCCACCUAUCAGCACUGAGUAAAUGCCAUAACUCCGCGGAAAUGGUCUAAAUA	0.324 ratio
AUUGUUGAAGCGAAUCCACUUUUAGAAGCCUUUGGAAAUGCAAAGACUGUUCGCAACAAUAAUAGCAGUCGAUUUGGAAAAUUUGUAGAAAUUCAUUUCAAUGAAAAGAGUUCGGUUGUU	0.32 ratio
UCAUUUUUCUCUUUUCUUUCUUUCCUUUAGGAAAAGCCUAAAGAUUAGGUUGUAAGAAAAAUAGAAGCCAUGUUUCGAAGACCUGUAUUACAGGUAUUUCGUCAGUUUGUAAGACAUGAG	0.439 ratio
CCCCAAUACCAUUUGCAAGAGUUGGAAUGCACUCUCUUUUUUAAAAAAUAUGCAUAUAUUUUAGGGCUGUAGAUUUAUUUUCCUGGUUUUGUUUUUCAUUGCUGACUUUUGAGCACAGAA	1.2 ratio
AAAGAACUACUGAGGCAAGGCAGCAAAUUUAGGAGAGAUGUAUCAACAAUAUUGAUAGAGUUAGGAUUCCAAAUUAAAAAGAAAACUAAGACAUUAUAUAUCAACAAAGCCAAUGUGUGG	5.44 ratio
ACUCAGAGAUCCACCUCCCAAAGUGCUGGGAGUAAAGGUGUGGCCACCACACCUAACUUGAUGGAUAUAUAUUUUUUCUCUUUUAUGUCUUCCUGUUCGUCCAGGGAAGAAAGAUUUGUU	0.88 ratio
AAAUCAUGUGUGUCCAAUAUUGAAAGUGCUUUAUCUACACUCCAGUAUGUAAGCAGUAUAGUAGUUUCUUUAGAGAAUAGGUCUGCCAUUGUAAAGUACAAUGCAAGCUUAGUCACUCCA	1.6 ratio
AAACAUCUGUCUUUAAGCAUUCCAAGCGAGAAUGCUGGGGUGAUCAUUGUUGCCCAUGUGCCUUCUGACUGAGCUUUAAUGCUGUUCCAUGUUACAUUGAUGUUCUUCUCCAGAAUUGUU	0.154 ratio
CUCGGCACCGGCACGCUUUACAUCGCGGAGAGCCGCCUGUCCUGGUUAGAUGGCUCUGGAUUAGGAUUCUCACUGGAAUACCCCACCAUUAGUUUACAUGCGGUGUCCAGGGAUCCAAAC	0.327 ratio
GAGCCCAGUCGGCAGUUUGUAAAGGACUCAAUUCGGCUGGUUAAAAGAUGCACCAAACCCGACAGAAAAGAAUUCCAGAAGAUUGCCAUGGCAACAGCUAUAGGAUUUGCUAUCAUGGGA	0.189 ratio
CUCAUGGCUGCAGAAACAGGAAGUGGAAAAACUGGUGCAUUUAGUAUUCCCGUUAUCCAGAUAGUUUAUGAAACUCUGAAAGACCAACAGGAAGGAAAGAAAGGGAAAACAACUAUUAAA	0.858 ratio

Set 3
Target: RNA binding protein fox-1 homolog 2, RRM domain, GST-SBP tag (RBFOX2, Homo sapiens, UniProt O43251-10, residues 100-194)
Technique: RNA Bind-n-Seq
Molecule type: RNA
Medium: in vitro
Concentration: 365 nM
Setting: natural RNA segment, single round, ends assumed
Reference: no-protein control
Reading: higher = stronger binding
Constant ends, left off below: GGGAGUUCUACAGUCCGACGAUC … UGGAAUUCUCGGGUGCCAA
Construct (chain): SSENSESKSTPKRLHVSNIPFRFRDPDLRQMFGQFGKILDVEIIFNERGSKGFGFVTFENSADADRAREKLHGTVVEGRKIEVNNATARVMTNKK
Sequence	RBNS enrichment (R)
UUUUUUCAGCUAAUUUGUUAUUUGACCAGAAGUUGUCUGGGGAGACUGAGUUCUUUGAGUUGCAUAUAAAUGGGGGUAUAUUAUUUGCCAAAGGUAAAAUUGAGUUUAUU	1.91
AAGUGGACACAAGCUGUGCCUGCACAUAGCUGUGCAGGGUAGACUGCCUACAUACACAUGGCCGGGAUUCUUUAUUUCCUUGUUAUCAAUUAUAGUGCUUUGUUUGUUUC	0.611
UGUGGAGAAAAGAUUUGACUGAUAGAUGUUGGGACUUAGGCAAAGCUUUUGAAAGGCCUCUAACCUAAACUCCCACCCAGCCUGUCAGGCCCGCUUUGAUAUUCAUUCAG	0.238
AUAACUAGACGUCUAUGUGAGAAAAUAUAUGUAUACAUAUAUAUGAUAUGCAGAAGUCACUUUUUUUAUCAGGCUUUAUUCUCCUUACAAAGCCACAGUUUAACUGUCUG	0.406
GGUAUUACCAGUAAAUUGGUUGUAUAUACAAUAAAAUUGCACCCUUUUUUUAAACAAAACAAACUAAGCAAUAGUUUGGGCAGUUCUAGUUGUUUUUAGUGAGCAUGUUG	7.98
GAGUUCAGAGCUGAGUACUUGUACCUGAGGGAGGGCCCCCAGCCAAUCUGGGCUGGUCCUUCUAUAUUCUUGGUCCCAGUUGGUCAUAACACCAAGGGCUUUGCCCUGCG	0.179
CUCUGCAAGUGGAAUGUUACCCUGUGGGUGGCUGGGUCCAACAGGGUCCCUCCUGUCCCCCCUCUUCAUCCCUUGACAAAUGGGCACCAGGCUUCUGCUCUCCUCAAAGC	0.639
UUUCAAUUUCCUGGGACUAUCCCAGAGAAAGACCUCAGUCUCUUCUAUUCACACUAUGCUUCCUAGAGACAGAACAAAAAUCAUGUAGGGAAAUUGGGGCUAAUGAGAUC	0.284
UAUCAUGGUGAACCAUUUAUUUAACUGUUGAUCUAGUCACCAAUACCUAGAAGACACCAUAAUCAGUUUAUUUACAACAACCACAUCAUCAGUUGCUUUUGUCGAACAUC	0.276

Set 4
Target: Histone acetyltransferase KAT6A, winged helix 2, GST fusion (KAT6A, Homo sapiens, UniProt Q92794, residues 85-181)
Technique: protein binding microarray
Molecule type: double-stranded DNA, one strand shown
Medium: in vitro
Concentration: not given
Setting: 8-mer, flanks averaged, mean of 2 arrays, mostly near background
Reference: not given
Reading: higher = stronger binding
Target sequence (chain): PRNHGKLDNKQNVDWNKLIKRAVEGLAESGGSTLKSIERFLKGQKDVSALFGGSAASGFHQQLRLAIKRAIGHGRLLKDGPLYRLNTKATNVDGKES
Sequence	E-score
AAGGGACC	0.0975
CCGAGTGC	0.167
CCAAGGGG	0.23
AAGGCTAG	-0.0493
GCGCGCTA	0.0806
CCATCCTA	-0.0553
ATCGGGGA	-0.0386
AGGGCGCG	0.215
CCAAACCA	-0.0462
CTAATTAG	-0.116
ATACTTAA	-0.021
AACGGTAC	0.0394
AGAATGTA	-0.0712
ATTGCGCC	0.0436
ACGTGTAG	-0.351
AGTACGAA	0.0485
CTTATTTC	0.064

For quick reference, copied from above (set 1):
Sequence	log fluorescence [z-score]
TCAAGACTCATAATGGCACTGTGCTAG	0.12
TTAGGTATCGCGTATCGGTTAGTGCTA	0.546
GGGTGTGTGAGTGTGTGTGCGTGCTAG	-1.02
CTAATATTCTGCTTTGCAATGTGCTAG	1.47
TTAGGTATCGACTTCCGGTTAGTGCTA	2.14
TTAGATCTCAGACTGGGTTAGTGCTAG	0.0575
